# Results gathered from unrelated publications.
# Values joined by “and” are separate records of one study, mostly repeats; a detail may differ. ± marks the error that the study gave.
# SLC6A3: Sodium-dependent dopamine transporter (SLC6A3, Homo sapiens, UniProt Q01959)
# Chain of UniProt Q01959 (whole entry, looked up): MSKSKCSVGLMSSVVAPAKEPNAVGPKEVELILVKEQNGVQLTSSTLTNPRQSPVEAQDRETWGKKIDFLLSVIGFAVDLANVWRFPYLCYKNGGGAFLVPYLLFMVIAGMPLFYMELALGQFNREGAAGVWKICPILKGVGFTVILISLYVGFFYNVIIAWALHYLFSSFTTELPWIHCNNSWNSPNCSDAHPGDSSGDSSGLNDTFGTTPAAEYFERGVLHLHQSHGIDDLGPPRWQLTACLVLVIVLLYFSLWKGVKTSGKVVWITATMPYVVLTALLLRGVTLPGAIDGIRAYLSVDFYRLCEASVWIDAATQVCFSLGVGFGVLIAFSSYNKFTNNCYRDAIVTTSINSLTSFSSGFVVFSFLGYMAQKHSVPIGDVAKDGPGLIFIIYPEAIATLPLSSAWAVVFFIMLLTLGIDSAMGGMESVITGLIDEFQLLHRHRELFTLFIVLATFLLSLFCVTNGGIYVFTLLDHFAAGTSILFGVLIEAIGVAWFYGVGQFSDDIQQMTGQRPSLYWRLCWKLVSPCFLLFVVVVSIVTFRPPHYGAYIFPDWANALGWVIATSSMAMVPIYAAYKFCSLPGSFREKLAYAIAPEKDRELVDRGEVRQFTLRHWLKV
# Genome polyprotein 3C protease: Genome polyprotein, 3C protease (rhinovirus B14, UniProt P03303)
# Chain of UniProt P03303 (whole entry, looked up): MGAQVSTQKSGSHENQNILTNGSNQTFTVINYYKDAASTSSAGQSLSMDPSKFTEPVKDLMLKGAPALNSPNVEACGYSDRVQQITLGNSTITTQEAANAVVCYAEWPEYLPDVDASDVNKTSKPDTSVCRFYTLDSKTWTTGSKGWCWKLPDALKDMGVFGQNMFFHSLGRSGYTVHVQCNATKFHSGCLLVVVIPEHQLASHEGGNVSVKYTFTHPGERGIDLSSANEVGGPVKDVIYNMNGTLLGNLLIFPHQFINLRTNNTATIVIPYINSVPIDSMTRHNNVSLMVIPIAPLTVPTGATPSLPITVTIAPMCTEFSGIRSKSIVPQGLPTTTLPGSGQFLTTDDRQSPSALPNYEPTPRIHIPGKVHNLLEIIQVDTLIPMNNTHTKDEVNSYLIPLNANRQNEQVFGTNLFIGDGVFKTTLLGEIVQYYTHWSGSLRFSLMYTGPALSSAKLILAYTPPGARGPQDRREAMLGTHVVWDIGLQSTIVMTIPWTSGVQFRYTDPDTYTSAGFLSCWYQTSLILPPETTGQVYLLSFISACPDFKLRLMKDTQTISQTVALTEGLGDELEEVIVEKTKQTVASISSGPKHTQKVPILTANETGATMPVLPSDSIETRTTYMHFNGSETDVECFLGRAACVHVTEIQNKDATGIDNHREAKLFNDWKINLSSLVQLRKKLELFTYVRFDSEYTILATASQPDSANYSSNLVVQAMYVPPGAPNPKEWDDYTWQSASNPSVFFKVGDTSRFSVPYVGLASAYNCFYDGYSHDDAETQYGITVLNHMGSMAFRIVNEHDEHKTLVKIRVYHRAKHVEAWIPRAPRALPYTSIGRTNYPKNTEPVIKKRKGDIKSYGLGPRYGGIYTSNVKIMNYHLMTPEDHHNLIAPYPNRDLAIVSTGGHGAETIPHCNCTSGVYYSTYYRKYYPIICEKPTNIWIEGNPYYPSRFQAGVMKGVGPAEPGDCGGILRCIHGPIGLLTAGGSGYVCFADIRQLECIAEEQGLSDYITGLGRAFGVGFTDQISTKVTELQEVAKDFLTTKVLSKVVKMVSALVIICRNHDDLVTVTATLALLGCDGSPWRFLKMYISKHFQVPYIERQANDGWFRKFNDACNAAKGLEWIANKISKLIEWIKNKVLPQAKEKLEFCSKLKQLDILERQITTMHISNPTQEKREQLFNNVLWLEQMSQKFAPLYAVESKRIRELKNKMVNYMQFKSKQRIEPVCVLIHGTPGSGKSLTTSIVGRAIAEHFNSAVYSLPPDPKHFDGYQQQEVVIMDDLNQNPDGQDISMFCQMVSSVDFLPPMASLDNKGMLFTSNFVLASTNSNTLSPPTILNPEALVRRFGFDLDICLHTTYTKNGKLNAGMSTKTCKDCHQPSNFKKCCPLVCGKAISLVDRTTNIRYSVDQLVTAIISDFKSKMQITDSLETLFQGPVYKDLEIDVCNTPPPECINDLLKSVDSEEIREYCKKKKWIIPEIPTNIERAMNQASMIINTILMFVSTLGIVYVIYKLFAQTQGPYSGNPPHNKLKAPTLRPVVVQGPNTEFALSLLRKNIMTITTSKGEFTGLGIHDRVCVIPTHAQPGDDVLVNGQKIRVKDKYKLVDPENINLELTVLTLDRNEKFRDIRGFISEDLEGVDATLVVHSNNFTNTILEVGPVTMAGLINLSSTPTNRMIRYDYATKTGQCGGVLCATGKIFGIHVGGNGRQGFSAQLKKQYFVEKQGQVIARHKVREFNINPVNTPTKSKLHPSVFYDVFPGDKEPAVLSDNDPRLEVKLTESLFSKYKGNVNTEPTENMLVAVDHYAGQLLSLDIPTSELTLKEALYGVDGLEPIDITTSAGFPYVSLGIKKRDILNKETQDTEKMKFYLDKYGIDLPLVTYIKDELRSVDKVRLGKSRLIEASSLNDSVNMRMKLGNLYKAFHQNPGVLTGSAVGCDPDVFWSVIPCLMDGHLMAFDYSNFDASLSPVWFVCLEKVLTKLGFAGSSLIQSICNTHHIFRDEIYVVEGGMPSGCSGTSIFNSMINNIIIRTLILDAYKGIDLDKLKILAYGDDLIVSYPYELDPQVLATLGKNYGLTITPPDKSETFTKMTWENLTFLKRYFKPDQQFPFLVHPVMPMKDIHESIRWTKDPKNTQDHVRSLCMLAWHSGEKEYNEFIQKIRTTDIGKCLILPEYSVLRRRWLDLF
# Chain of UniProt Q96RJ0 (whole entry, looked up): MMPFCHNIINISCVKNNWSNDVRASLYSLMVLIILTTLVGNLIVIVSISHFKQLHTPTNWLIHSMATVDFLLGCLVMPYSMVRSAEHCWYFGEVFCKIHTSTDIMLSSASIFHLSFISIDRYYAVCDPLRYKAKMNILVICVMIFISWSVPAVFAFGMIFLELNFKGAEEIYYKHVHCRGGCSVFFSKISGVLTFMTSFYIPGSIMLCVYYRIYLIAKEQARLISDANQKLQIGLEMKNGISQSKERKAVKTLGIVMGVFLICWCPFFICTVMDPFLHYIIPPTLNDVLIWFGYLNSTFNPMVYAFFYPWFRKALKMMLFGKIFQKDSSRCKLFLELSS
# Chain of UniProt O43148 (whole entry, looked up): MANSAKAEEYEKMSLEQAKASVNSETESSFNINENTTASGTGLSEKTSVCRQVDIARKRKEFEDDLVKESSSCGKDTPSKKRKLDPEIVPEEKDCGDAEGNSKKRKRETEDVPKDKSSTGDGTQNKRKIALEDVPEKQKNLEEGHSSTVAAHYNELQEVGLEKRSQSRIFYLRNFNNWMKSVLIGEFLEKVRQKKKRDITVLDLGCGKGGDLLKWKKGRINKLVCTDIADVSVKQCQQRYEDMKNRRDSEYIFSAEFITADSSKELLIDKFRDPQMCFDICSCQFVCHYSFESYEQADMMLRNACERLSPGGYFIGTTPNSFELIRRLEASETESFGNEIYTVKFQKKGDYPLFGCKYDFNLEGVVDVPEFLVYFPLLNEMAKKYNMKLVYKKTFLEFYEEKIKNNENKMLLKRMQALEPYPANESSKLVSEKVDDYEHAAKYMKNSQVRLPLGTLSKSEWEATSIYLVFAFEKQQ
# Chain of UniProt Q96KQ7 (whole entry, looked up): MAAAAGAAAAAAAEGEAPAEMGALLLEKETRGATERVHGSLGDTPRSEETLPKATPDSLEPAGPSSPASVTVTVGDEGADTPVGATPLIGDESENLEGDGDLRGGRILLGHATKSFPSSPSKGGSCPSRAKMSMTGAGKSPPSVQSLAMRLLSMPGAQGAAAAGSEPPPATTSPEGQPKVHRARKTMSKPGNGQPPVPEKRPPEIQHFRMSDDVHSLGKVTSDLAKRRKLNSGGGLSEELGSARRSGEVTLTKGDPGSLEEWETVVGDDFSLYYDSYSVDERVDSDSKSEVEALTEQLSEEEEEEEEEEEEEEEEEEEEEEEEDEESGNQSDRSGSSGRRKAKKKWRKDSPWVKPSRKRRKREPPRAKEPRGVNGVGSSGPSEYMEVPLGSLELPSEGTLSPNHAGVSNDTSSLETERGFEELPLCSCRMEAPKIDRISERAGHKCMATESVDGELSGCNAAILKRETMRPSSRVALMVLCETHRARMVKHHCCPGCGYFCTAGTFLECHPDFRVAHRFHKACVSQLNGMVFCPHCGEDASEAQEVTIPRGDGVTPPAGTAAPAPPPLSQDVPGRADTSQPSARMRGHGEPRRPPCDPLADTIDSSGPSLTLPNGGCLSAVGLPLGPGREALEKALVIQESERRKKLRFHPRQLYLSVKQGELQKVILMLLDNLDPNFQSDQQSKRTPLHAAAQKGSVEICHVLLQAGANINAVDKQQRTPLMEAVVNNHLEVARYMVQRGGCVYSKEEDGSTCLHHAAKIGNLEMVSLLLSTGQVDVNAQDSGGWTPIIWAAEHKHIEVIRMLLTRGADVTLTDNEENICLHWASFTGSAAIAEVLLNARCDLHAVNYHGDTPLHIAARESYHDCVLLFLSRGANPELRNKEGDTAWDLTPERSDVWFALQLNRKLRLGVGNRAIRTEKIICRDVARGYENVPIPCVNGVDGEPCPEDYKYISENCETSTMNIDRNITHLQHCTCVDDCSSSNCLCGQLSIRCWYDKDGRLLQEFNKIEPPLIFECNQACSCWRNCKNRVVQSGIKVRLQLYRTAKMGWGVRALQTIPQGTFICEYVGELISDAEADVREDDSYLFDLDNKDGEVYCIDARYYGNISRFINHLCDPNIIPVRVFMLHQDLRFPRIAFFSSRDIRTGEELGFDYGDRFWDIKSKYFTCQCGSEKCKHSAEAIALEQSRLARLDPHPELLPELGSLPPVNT
# Chain of UniProt P61244 (whole entry, looked up): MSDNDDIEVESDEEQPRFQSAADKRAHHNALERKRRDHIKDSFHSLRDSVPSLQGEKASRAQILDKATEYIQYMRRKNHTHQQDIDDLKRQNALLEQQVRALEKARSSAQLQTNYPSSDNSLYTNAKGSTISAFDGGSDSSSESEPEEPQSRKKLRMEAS
SMILES,target,assay,test system,conditions,IC50
COC(=O)C=CCCC(NC(=O)c1ccncc1C(=O)O)C(=O)NC(C(=O)N1CC(=O)CC1C(=O)NC(C(=O)NC(C(N)=O)C1CCCCC1)C1CCCCC1)C(C)(C)C (centres unmarked),"Coagulation factor XIII A chain (Crab-eating macaque, UniProt A0A7N9D9X7)","transamidation activity, inhibitor",,"cynomolgus enzyme, added: dansylcadaverine into N,N-dimethylcasein",19 ± 0.6 nM
CCCCCCCCCCCCCCCc1ccc(C(O)P(=O)(O)O)cc1 (racemic),"Autotaxin (ENPP2, Homo sapiens, UniProt Q13822)","enzyme activity, inhibitor",,added: FS-3 1 µM,730 nM
CC[C@H](C)[C@H](NC(=O)CN)C(=O)NCC(=O)N[C@@H](C)C(=O)N[C@H](C(=O)N[C@@H](CC(C)C)C(=O)N[C@@H](CCCCN)C(=O)N[C@H](C(=O)N[C@@H](CC(C)C)C(=O)N[C@H](C(=O)N[C@H](C(=O)NCC(=O)N[C@@H](CC(C)C)C(=O)N1CCC[C@H]1C(=O)N[C@@H](C)C(=O)N[C@@H](CC(C)C)C(=O)N[C@H](C(=O)N[C@@H](CO)C(=O)N[C@@H](Cc1c[nH]c2ccccc12)C(=O)N[C@H](C(=O)N[C@@H](CCCCN)C(=O)N[C@@H](CCCNC(=N)N)C(=O)N[C@@H](CCCCN)C(=O)N[C@@H](CCCNC(=N)N)C(=O)N[C@@H](CCC(N)=O)C(=O)N[C@@H](CCC(N)=O)C(N)=O)[C@@H](C)CC)[C@@H](C)CC)[C@@H](C)O)[C@@H](C)O)C(C)C)C(C)C,SLC6A3,"ligand displacement, radioligand",,cell membranes,880 nM
CSCC[C@H](NC(=O)[C@H](Cc1ccccc1)NC(=O)[C@H](Cc1c[nH]cn1)NC(=O)CNC(=O)[C@@H](NC(=O)[C@H](C)NC(=O)[C@H](Cc1c[nH]c2ccccc12)NC(=O)[C@H](CCC(N)=O)NC(=O)[C@@H]1CCCN1C(=O)[C@@H](NC(=O)[C@@H]1CCC(=O)N1)C(C)C)C(C)C)C(N)=O,"GRPR (Homo sapiens, UniProt P30550)","ligand displacement in cells, radioligand",,,2.24 nM
CCCC[C@H]1C(=O)N(C)[C@@H](CCCC)C(=O)N[C@@H](CCCNC(=O)CN2CCN(CC(=O)O)CCN(CC(=O)O)CCN(CC(=O)O)CC2)C(=O)N[C@H](C(=O)NCC(N)=O)CSCC(=O)N[C@@H](Cc2ccc(O)cc2)C(=O)N(C)[C@@H](C)C(=O)N[C@@H](CC(N)=O)C(=O)N2CCC[C@H]2C(=O)N[C@@H](Cc2c[nH]cn2)C(=O)N[C@@H](CC(C)C)C(=O)N(C)CC(=O)N[C@@H](Cc2c[nH]c3ccccc23)C(=O)N[C@@H](CO)C(=O)N[C@@H](Cc2c[nH]c3ccccc23)C(=O)N1C,"CD274 (Homo sapiens, UniProt Q9NZQ7)","ligand displacement, radioligand",,,12.5 nM
C1CCc2c(c(N3CCOCC3)nc3sc4c(N5CCOCC5)nnnc4c23)C1,"Beta-glucuronidase (uidA, Escherichia coli, UniProt P05804)","enzyme activity, inhibitor",,,> 100000 nM
Cn1c(C(=O)NCCN2CCC3(CC2)C(=O)NCN3Cc2cccnc2)cc2ccccc21,"Phospholipase D1 (Homo sapiens, UniProt Q13393)","enzyme activity, inhibitor",,,> 20000 nM
O=C(Nc1ccccc1)c1ccccc1O,"HDAC2 (Homo sapiens, UniProt Q92769)","enzyme activity, inhibitor, fluorescence",,,> 10000 nM
CCN(Cc1ccccc1)C(=O)CCc1nc(CN2CCN(C(=O)Cc3ccc(OC)c(OC)c3)CC2)no1,"Scn10a (Rattus norvegicus, UniProt Q62968)","ion current, inhibitor, patch clamp",,,240 nM
CC[C@H](C)[C@H](N)C(=O)N[C@@H](CC(N)=O)C(=O)N[C@H]1CSC(=O)[C@H](CC(C)C)NC(=O)[C@H](CC(C)C)NC(=O)[C@H](Cc2ccccc2)NC(=O)[C@H](CC(N)=O)NC1=O,"Accessory gene regulator protein C (Staphylococcus aureus, UniProt Q309Z2)",,,,0.294 nM
CC(C)CC(O)(CC(C)C)c1cn(C(=O)N2CCCC2)nn1,"Acylamino-acid-releasing enzyme (Apeh, Rattus norvegicus, UniProt P13676)","inhibitor, competitive ABPP",rat B103 cell proteome,30 min,7 nM
CC(Cc1ccccc1Sc1ccccc1)N(C)C (centres unmarked),SLC6A3,"transporter uptake, inhibitor, radiometric",,,720 nM
CCCCn1nnc(-c2cccc(NC(=O)[C@H](C)CS)c2)n1,"VIM-2 (Escherichia coli, UniProt Q5U7L7)","enzyme activity, inhibitor, fluorescence",,with preincubation,25.1 nM
CN(C)c1nc2sc3c(N4CCNCC4)nnnc3c2c2c1CCCC2,"Beta-glucuronidase (Streptococcus agalactiae serotype V, UniProt Q8E0N2)",,Streptococcus agalactiae,,700 ± 90 nM
NCP(=O)(O)O,"Urease subunit alpha (Sporosarcina pasteurii, UniProt P41020)","enzyme activity, inhibitor, indophenol colorimetric",,"20 min, pH 7.0, 37 °C, added: 50 mM urea",700000 ± 23000 nM
CC(=O)N[C@@H](Cc1ccccc1)C(=O)N[C@@H](CC(C)C)C(=O)N[C@H](C(=O)N[C@@H](CC(=O)O)C(=O)CCl)[C@@H](C)O,"Caspase-4 (Casp4, Mus musculus, UniProt P70343)","enzyme activity, inhibitor, fluorescence",,,25600 nM
CCn1c(-c2ccc(-c3ccc(F)cc3)cc2)c(-c2ccc(-c3ccc(F)cc3)cc2)n(CC)c1=[Se+][Au-][P+](CC)(CC)CC.Cl,"thioredoxin reductase (Acinetobacter baumannii, UniProt A0A0G4QN87)","enzyme activity, inhibitor",,added: DTNB,5080 nM
C[C@@]12CC[C@@H]3c4cc(Cl)c(O)c(Cl)c4CC[C@H]3[C@@H]1CCC2=O,"AKR1C2 (Homo sapiens, UniProt P52895)","enzyme activity, inhibitor, absorbance",,pH 9,4600 nM
O=C(O)CNC(CO)(CO)CO,IMP-28 metallo-beta-lactamase,"enzyme activity, inhibitor, FC5 fluorescent substrate",,"60 pM enzyme, 1 µM ZnSO4",> 200000 nM
N#CC1=C(N)OC2=C(c3sc(N)c(C#N)c3CC2)C1c1ccccc1Cl (centres unmarked),"RNMT (Homo sapiens, UniProt O43148)","enzyme activity, inhibitor",,,80400 nM
CCC[C@H](NC(=O)[C@H](CC(C)C)NC(=O)OCc1ccccc1)C(=O)C(=O)NCc1ccccn1,Genome polyprotein 3C protease,"enzyme activity, inhibitor, SAMDI-MS",human rhinovirus,"30 min preincubation, added: substrate 10 µM",> 100000 nM
N#Cc1c(C(F)(F)F)cc(-c2ccc(Cl)cc2)nc1SCC(=O)Nc1ccccn1,"TAAR1 (Homo sapiens, UniProt Q96RJ0)",,,,< 500 nM and 421 nM
CC[C@H](C)[C@H](NC(=O)[C@@H](N)Cc1ccc(O)cc1)C(=O)N[C@@H](Cc1ccccc1)C(=O)N[C@@H](CC(N)=O)C(=O)N[C@@H](CC(C)C)C(=O)O,"OPRM1 (Homo sapiens, UniProt P35372)","binding, radioligand displacement",MCF7,added: [3H]DAMGO,0.143 ± 2e-12 nM
CC[C@H](C)[C@@H]1NC(=O)[C@H](Cc2ccccc2)NC(=O)[C@H](CC(=O)O)NC(=O)[C@@H](NC(C)=O)CSC(=O)[C@H](CCSC)NC1=O,"accessory gene regulator protein C (Staphylococcus aureus, UniProt O33587)",,,,9.42 nM
CCC1c2ccsc2CCN1C(=O)Cn1nnc2ccccc21 (centres unmarked),Genome polyprotein 3C protease,"3C protease activity, SAMDI-MS",human rhinovirus,,> 100000 nM
Nc1ncnc2c1ncn2[C@@H]1O[C@H](CSCCNC(=O)NCC2CCCCC2)[C@@H](O)[C@H]1O,"EHMT2 (Homo sapiens, UniProt Q96KQ7)","enzyme activity, inhibitor, radiometric",,,> 50000 nM
O=C(Oc1cncc(Cl)c1)c1cccs1,"Chymotrypsinogen A (Bos taurus, UniProt P00766)","enzyme activity, inhibitor",,,13000 nM
C/C=C1/CN2CCc3c([nH]c4ccccc34)[C@@H]2C[C@@H]1/C(=C\OC)C(=O)OC,"HTR7 (Homo sapiens, UniProt P34969)","ligand displacement, radioligand",,cell membranes,34 nM
c1cc2c(s1)CCOC21CCN(Cc2ccc3c(c2)OCCO3)CC1,"Cytochrome P450 3A4 (CYP3A4, Homo sapiens, UniProt P08684)","enzyme activity, inhibitor",,added: VR substrate,> 50000 nM
Cc1c(C(=O)Nc2cccc(C(F)(F)F)c2)cc(-c2ccccc2)n1CCCN1CCOCC1,"TRPV4 (Homo sapiens, UniProt Q9HBA0, D546A)",calcium signal,,,499 nM
CC[C@H](C)[C@H](NC(=O)CN(CCOC)C(=O)CN(CCOC)C(=O)CN(CCOC)C(=O)CN(CCOC)C(=O)CN(CCOC)C(=O)CN(CCOC)C(=O)CN(CCOC)C(=O)CN(CCOC)C(=O)CN(CCOC)C(=O)CNCCOC)C(=O)N[C@@H](CO)C(=O)N[C@@H](CCC(N)=O)C(=O)N[C@H](C(=O)N[C@@H](CC(N)=O)C(=O)N[C@@H](CCC(=O)O)C(=O)N[C@@H](CCCCN)C(=O)N[C@H](C(=O)N[C@@H](CC(N)=O)C(=O)N[C@@H](CCC(N)=O)C(=O)N[C@@H](CO)C(=O)N[C@@H](CC(C)C)C(=O)N[C@@H](C)C(=O)N[C@@H](Cc1ccccc1)C(=O)N[C@H](C(=O)N[C@@H](CCCNC(=N)N)C(=O)N[C@@H](CCCCN)C(=O)N[C@@H](CO)C(=O)N[C@@H](CC(=O)O)C(=O)N[C@@H](CCC(=O)O)C(=O)O)[C@@H](C)CC)[C@@H](C)CC)C(C)C,hRSV fusion protein 5-helix bundle,"binding, fluorescence polarization",,added: Fl-C35 tracer 5 nM,> 200000 nM
O=C(NCCN1CCC2(CC1)C(=O)NCN2Cc1ccccn1)c1ccc2ccccc2c1,"Phospholipase D2 (Homo sapiens, UniProt O14939)","enzyme activity, inhibitor",,,80 nM
CC(C)=CCc1c(O)ccc(C(=O)C2C(c3c(O)cc(O)c4c(=O)c(CC=C(C)C)c(-c5ccc(O)cc5O)oc34)C=C(C)CC2c2ccc(O)cc2O)c1O (centres unmarked),"mRNA cap guanine-N(7) methyltransferase, with RAM (RNMT, Homo sapiens, UniProt O43148)","N7-methyltransferase activity, inhibitor, Py-FLINT",,"RNMT-RAM complex, added: SAM 20 µM",31900 ± 320 nM
CN(C)c1ccc(/C=C/C(=O)c2ccc(N3CCNCC3)cc2)cc1,"Beta-secretase 1 (BACE1, Homo sapiens, UniProt P56817)","enzyme activity, inhibitor, fluorescence",,with preincubation,11600 nM
CC(C)[C@@H]1NC(=O)[C@H](CCC(N)=O)NC(=O)[C@@H](Cc2ccc(O)cc2)NC(=O)CSC[C@@H](C(N)=O)NC(=O)[C@H](CC(=O)O)NC(=O)[C@H](CCC(=O)O)NC(=O)[C@H](Cc2c[nH]c3ccccc23)NC(=O)[C@@H]2CCCN2C(=O)[C@H](CO)N(C)C(=O)[C@H](C)NC(=O)[C@H](Cc2c[nH]c3ccccc23)NC(=O)[C@H](Cc2c[nH]c3ccccc23)NC(=O)[C@H](C(C)C)NC(=O)[C@H]([C@@H](C)O)NC1=O,"2,3-bisphosphoglycerate-independent phosphoglycerate mutase (gpmI, Staphylococcus aureus, UniProt Q6GIL5)","enzyme activity, inhibitor",,,45 nM
CO[C@H]1O[C@H](CO)[C@@H](O)[C@H](O)[C@@H]1O,"Concanavalin-A (Canavalia ensiformis, UniProt P02866)",,,,144000 ± 7000 nM
CC[C@H](C)[C@H](NC(=O)[C@H](CCC(=O)O)NC(=O)[C@H](C)NC(=O)[C@H](C)NC(=O)[C@H](CC(C)C)NC(=O)[C@@H](NC(=O)[C@H](CCC(=O)O)NC(=O)[C@@H](NC(=O)[C@H](CCC(=O)O)NC(=O)[C@H](CC(=O)O)NC(=O)[C@H](C)NC(C)=O)[C@@H](C)O)C(C)C)C(=O)N[C@H]1CSCc2cccc(c2)CSC[C@@H](C(=O)N[C@@H](CCC(N)=O)C(=O)N[C@H](C(=O)N[C@@H](CCC(N)=O)C(=O)N[C@@H](CCC(=O)O)C(=O)N[C@@H](CCC(=O)O)C(=O)N[C@@H](CC(=O)O)C(=O)N2CCC[C@H]2C(=O)N[C@@H](CC(N)=O)C(=O)NCCC(=O)N[C@@H](CCCCNC(=O)CCCC[C@@H]2SC[C@@H]3NC(=O)N[C@@H]32)C(N)=O)C(C)C)NC(=O)[C@H](C(C)C)NC(=O)[C@H](C)NC(=O)[C@H](CCCCN)NC1=O,"Protein max, homodimer bound to E-box (MAX, Homo sapiens, UniProt P61244)","DNA binding, EMSA",,added: DNA 40 nM,1940 ± 710 nM
CC(C)C[C@H](NC(=O)[C@H](CC(N)=O)NC(=O)[C@H](CCC(=O)O)NC(=O)[C@@H](N)CS)C(=O)O,"PPO3 (Agaricus bisporus, UniProt C7FF04)","enzyme activity, inhibitor",,,151000 nM

# Some of these lines once more:
SMILES,target,assay,test system,conditions,IC50
CCCC[C@H]1C(=O)N(C)[C@@H](CCCC)C(=O)N[C@@H](CCCNC(=O)CN2CCN(CC(=O)O)CCN(CC(=O)O)CCN(CC(=O)O)CC2)C(=O)N[C@H](C(=O)NCC(N)=O)CSCC(=O)N[C@@H](Cc2ccc(O)cc2)C(=O)N(C)[C@@H](C)C(=O)N[C@@H](CC(N)=O)C(=O)N2CCC[C@H]2C(=O)N[C@@H](Cc2c[nH]cn2)C(=O)N[C@@H](CC(C)C)C(=O)N(C)CC(=O)N[C@@H](Cc2c[nH]c3ccccc23)C(=O)N[C@@H](CO)C(=O)N[C@@H](Cc2c[nH]c3ccccc23)C(=O)N1C,"CD274 (Homo sapiens, UniProt Q9NZQ7)","ligand displacement, radioligand",,,12.5 nM
C1CCc2c(c(N3CCOCC3)nc3sc4c(N5CCOCC5)nnnc4c23)C1,"Beta-glucuronidase (uidA, Escherichia coli, UniProt P05804)","enzyme activity, inhibitor",,,> 100000 nM
Cn1c(C(=O)NCCN2CCC3(CC2)C(=O)NCN3Cc2cccnc2)cc2ccccc21,"Phospholipase D1 (Homo sapiens, UniProt Q13393)","enzyme activity, inhibitor",,,> 20000 nM
